Experimental data gathered from unrelated publications.
Each line is one published result; not all experiments were run side by side. Numbers after ± are the reported error.
Target: Tyrosine-protein kinase Fgr (FGR, Homo sapiens, UniProt P09769)
Chain of UniProt P09769 (whole entry, looked up): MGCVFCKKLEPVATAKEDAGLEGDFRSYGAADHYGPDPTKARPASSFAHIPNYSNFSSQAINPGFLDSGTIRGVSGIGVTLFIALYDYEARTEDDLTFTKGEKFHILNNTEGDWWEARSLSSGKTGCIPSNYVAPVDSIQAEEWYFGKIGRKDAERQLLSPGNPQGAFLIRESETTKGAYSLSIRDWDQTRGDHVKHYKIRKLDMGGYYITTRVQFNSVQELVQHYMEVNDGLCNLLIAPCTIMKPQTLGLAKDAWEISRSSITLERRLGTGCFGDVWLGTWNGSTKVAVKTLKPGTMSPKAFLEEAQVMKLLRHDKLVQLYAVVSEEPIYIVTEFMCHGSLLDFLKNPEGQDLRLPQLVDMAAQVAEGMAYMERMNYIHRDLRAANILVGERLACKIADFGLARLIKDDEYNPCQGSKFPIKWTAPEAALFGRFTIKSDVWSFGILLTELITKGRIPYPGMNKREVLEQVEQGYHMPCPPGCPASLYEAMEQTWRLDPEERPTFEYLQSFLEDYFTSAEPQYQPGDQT

SMILES = Cc1cc(Nc2cc(N3CCN(C)CC3)nc(Sc3ccc(NC(=O)C4CC4)cc3)n2)[nH]n1; assay = kinase activity, KinaseProfiler; conditions = 0.03 µM, species human; scale = baseline: control; quantity = remaining activity; value = 86%
SMILES = C=CC(=O)N1CCC([C@@H]2CCNc3c(C(N)=O)c(-c4ccc(Oc5ccccc5)cc4)nn32)CC1; assay = kinase activity, inhibitor, HotSpot radiometric; conditions = 100 nM, with: ATP 10 µM; quantity = remaining activity; value = 64.2 ± 0.3%
SMILES = C=CC(=O)N1CCC(COCC(=O)N2CCN(c3nc(-c4cnc(N)nc4C(F)F)nc(N4CCOC[C@@H]4C)n3)CC2)CC1; assay = KINOMEscan; conditions = 1 µM; quantity = remaining binding; value = 100%
SMILES = [2H]c1cc(C)c(NC(=O)c2cnc(Nc3cc(N4CCC(O)CC4)nc(C)n3)s2)c(Cl)c1; conditions = 0.001 µM; quantity = inhibition; value = > 50%
SMILES = COc1ccc(F)cc1C(=O)NCc1ccc(-c2nn([C@@H](C)C(F)(F)F)c(N)c2C(N)=O)cc1; assay = kinase activity, inhibitor, HotSpot radiometric; conditions = 1000 nM, with: ATP at Km; quantity = remaining activity; value = 67.1 ± 0.5%
SMILES = [2H]c1cc(C)c(NC(=O)c2cnc(Nc3cc(N4CCCCC4)nc(C)n3)s2)c(Cl)c1; conditions = 0.01 µM; quantity = inhibition; value = > 90%
SMILES = CC#CC(=O)N1CCC[C@H]1c1nc(-c2ccc(C(=O)Nc3ccccn3)cc2)c2c(N)nccn12; assay = kinase activity, inhibitor, HotSpot radiometric; conditions = 100 nM, with: ATP 10 µM; quantity = remaining activity; value = 99 ± 2.5%
SMILES = C=CC(=O)N1CCC(C(=O)NCC(=O)N2CCN(c3nc(-c4cnc(N)nc4C(F)F)nc(N4CCOCC4)n3)CC2)CC1; assay = KINOMEscan; conditions = 1 µM; quantity = remaining binding; value = 97%
SMILES = O=C(NC1CCC1)c1ccc2nc(-c3cccc(NS(=O)(=O)NCCN4CCCCC4)c3)cn2c1; assay = enzyme activity; conditions = 10 µM; quantity = remaining activity; value = 87%
SMILES = C#Cc1cc(-c2cc(Nc3nc(N[C@@H](C)c4ccc(F)cn4)ncc3Cl)n[nH]2)ccc1C=O; assay = enzyme activity, inhibitor; conditions = 0.2 µM; quantity = inhibition; value = 95%

Excerpt of the above:
SMILES = C#Cc1cc(-c2cc(Nc3nc(N[C@@H](C)c4ccc(F)cn4)ncc3Cl)n[nH]2)ccc1C=O; assay = enzyme activity, inhibitor; conditions = 0.2 µM; quantity = inhibition; value = 95%
